Published values of several laboratories.
Protocols differ between the studies behind these lines. Several values in a cell are separate wells, animals, samples, runs or records. Numbers after ± are the reported error.
IDE: Insulin-degrading enzyme (IDE, Homo sapiens, UniProt P14735)

Compound	target or system	test	test system	conditions	how to read	endpoint	result
Nc1ccccc1NC(=O)CCCCCCC(=O)Nc1ccccc1	HBL-1			0.5 µM, 120 h		viability	112%
O=C1NC(=O)/C(=C/c2ccc3ncnc(N4CCC(F)(F)CC4)c3n2)S1			NSG mice	dose not given, day 2		body weight	20.3 g and 19.2 g and 17.7 g
C[C@]12O[C@H](C[C@]1(O)CO)n1c3ccccc3c3c4c(c5c6ccccc6n2c5c31)CNC4=O	HBL-1			1 µM, 120 h		viability	2.76%
O=C(Nc1cccc(-c2cccc(-c3nc4ccccc4[nH]3)c2)c1)NC1CC1c1ccccc1 (stereo not drawn)	Plasmodium yoelii		17XL	384-well		IC50	> 20 µM
Cc1nc(-c2ccc(OCC(C)C)c(C#N)c2)sc1C(=O)O			KM mouse, chronic hyperuricaemia model	dose not given, day 2		body weight	25.6 g and 26.7 g and 28.2 g and 26.9 g and 26.8 g and 25.3 g
C1=C/COCc2cc(ccc2OCCN2CCCC2)Nc2nccc(n2)-c2cccc(c2)COC/1			BALB/c mice, rhEPO-induced polycythemia	120 mg/kg, day 4		body weight	19.9 g and 18.1 g and 19.1 g and 18.9 g and 18.8 g and 18 g
CCCCc1nc2cc(/C=C/C(=O)NO)ccc2n1CCN(CC)CC			mouse, MV4-11 xenograft	25 mg/kg daily, day 21	reference: baseline	body weight	96.8%
COc1cc(N2CCC(N3CCN(C)CC3)CC2)ccc1Nc1ncc(Cl)c(Nc2ccccc2P(C)(C)=O)n1			nude mice, NCI-H3122 xenograft	intraperitoneal, 10 mg/kg every other day, day 5		body weight	23 g and 23.7 g and 23.3 g and 20.9 g and 25 g
Cc1cccc(-c2ccc([C@@H]3[C@@H](CO)N4CCCCN(S(=O)(=O)c5cn(C)cn5)C[C@@H]34)cc2)c1	IDE	enzyme activity, inhibitor, fluorogenic kinetic		added: Mca-RPPGFSAFK(Dnp)-OH substrate		EC50	0.85 µM
CCc1nn(C)c2nc(-c3ccc(C(=O)O)cc3)nc(NCc3ccc(F)cc3)c12			NSG mice	dose not given, day 6 of treatment		body weight	21 g and 22.5 g and 20.8 g
CCc1cc(C(=O)NC)c2nccc(N3CCc4c(cc(Cn5ccnc5)cc4-c4cn(C)nc4C(F)(F)F)C3=O)c2c1			Sprague Dawley rat	oral, 100 mg/kg once daily, day 1, 7-day toxicology study		body weight	222 ± 4.8 g
O=C(O)CSc1nnc(Br)n1-c1ccc(C2CC2)c2ccccc12			KM mouse, chronic hyperuricaemia model	dose not given, day 18		body weight	35.8 g and 36.4 g and 39.2 g and 29.4 g and 32 g and 36.2 g
COc1ccc(CNc2nc(-c3ccc(C(=O)O)cc3)nc3sc4ccccc4c23)cc1Cl			NSG mice	dose not given, day 5		body weight	18.4 g and 20.2 g and 20.3 g and 21.8 g
Cc1ccccc1S(=O)(=O)N1CCCCN2[C@H](CO)[C@@H](c3ccc(-c4cccc(F)c4C(F)(F)F)cc3)[C@@H]2C1	IDE	enzyme activity, inhibitor, fluorescence kinetic		added: Mca-RPPGFSAFK(Dnp)-OH substrate		EC50	0.17 µM
Cc1cnc(Nc2ccc(OCCN3CCCC3)cc2)nc1Nc1cccc(S(=O)(=O)NC(C)(C)C)c1			BALB/c mice, rhEPO-induced polycythemia	120 mg/kg, day 3		body weight	19.4 g and 18.4 g and 18.9 g and 19.5 g and 18.8 g

A few entries again:
Compound	target or system	test	test system	conditions	how to read	endpoint	result
CCc1nn(C)c2nc(-c3ccc(C(=O)O)cc3)nc(NCc3ccc(F)cc3)c12			NSG mice	dose not given, day 6 of treatment		body weight	21 g and 22.5 g and 20.8 g
